Assay results gathered from unrelated publications.
Compare with care: the assays were run in different laboratories. Values joined by “and” are separate records of one study, mostly repeats; a detail may differ. Numbers after ± are the reported error.
U2AF2: U2AF2 148-342 (Homo sapiens, UniProt P26368)
Chain of UniProt P26368 (whole entry, looked up): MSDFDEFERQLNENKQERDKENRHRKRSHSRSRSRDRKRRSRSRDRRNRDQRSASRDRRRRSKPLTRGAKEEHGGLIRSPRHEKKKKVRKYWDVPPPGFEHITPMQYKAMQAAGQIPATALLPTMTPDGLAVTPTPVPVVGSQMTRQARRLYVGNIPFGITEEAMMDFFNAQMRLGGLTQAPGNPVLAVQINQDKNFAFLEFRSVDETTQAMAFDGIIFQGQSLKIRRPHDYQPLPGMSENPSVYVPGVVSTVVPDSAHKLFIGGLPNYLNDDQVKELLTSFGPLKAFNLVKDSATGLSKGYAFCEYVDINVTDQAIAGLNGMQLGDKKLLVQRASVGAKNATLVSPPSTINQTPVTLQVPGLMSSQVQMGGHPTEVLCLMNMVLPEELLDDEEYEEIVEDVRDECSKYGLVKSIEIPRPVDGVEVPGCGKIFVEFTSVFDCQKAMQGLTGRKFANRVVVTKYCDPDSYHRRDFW
B1: poly(rC)-binding protein 2, human; sequence looked up; chain MDTGVIEGGLNVTLTIRLLMHGKEVGSIIGKKGESVKKMREESGARINISEGNCPERIITLAGPTNAIFKAFAMIIDKLEEDISSSMTNSTAASRPPVTLRLVVPASQCGSLIGKGGCKIKEIRESTGAQVQVAGDMLPNSTERAITIAGIPQSIIECVKQICVVMLETLSQSPPKGVTIPYRPKPSSSPVIFAGGQDRYSTGSDSASFPHTTPSMCLNPDLEGPPLEAYTIQGQYAIPQPDLTKLHQLAMQQSHFPMTHGNTGFSGIESSSPEVKGYWGLDASAQTTSHELTIPNDLIGCIIGRQGAKINEIRQMSGAQIKIANPVEGSTDRQVTITGSAASISLAQYLINVRLSSETGGMGSS
B2: human hnRNP M; sequence looked up; chain AAGVEAAAEVAATEIKMEEESGAPGVPSGNGAPGPKGEGERPAQNEKRKEKNIKRGGNRFEPYANPTKRYRAFITNIPFDVKWQSLKDLVKEKVGEVTYVELLMDAEGKSRGCAVVEFKMEESMKKAAEVLNKHSLSGRPLKVKEDPDGEHARRAMQKVMATTGGMGMGPGGPGMITIPPSILNNPNIPNEIIHALQAGRLGSTVFVANLDYKVGWKKLKEVFSMAGVVVRADILEDKDGKSRGIGTVTFEQSIEAVQAISMFNGQLLFDRPMHVKMDERALPKGDFFPPERPQQLPHGLGGIGMGLGPGGQPIDANHLNKGIGMGNIGPAGMGMEGIGFGINKMGGMEGPFGGGMENMGRFGSGMNMGRINEILSNALKRGEIIAKQGGGGGGGSVPGIERMGPGIDRLGGAGMERMGAGLGHGMDRVGSEIERMGLVMDRMGSVERMGSGIERMGPLGLDHMASSIERMGQTMERIGSGVERMGAGMGFGLERMAAPIDRVGQTIERMGSGVERMGPAIERMGLSMERMVPAGMGAGLERMGPVMDRMATGLERMGANNLERMGLERMGANSLERMGLERMGANSLERMGPAMGPALGAGIERMGLAMGGGGGASFDRAIEMERGNFGGSFAGSFGGAGGHAPGVARKACQIFVRNLPFDFTWKMLKDKFNECGHVLYADIKMENGKSKGCGVVKFESPEVAERACRMMNGMKLSGREIDVRIDRNA
Chain of UniProt P13393 (whole entry, looked up): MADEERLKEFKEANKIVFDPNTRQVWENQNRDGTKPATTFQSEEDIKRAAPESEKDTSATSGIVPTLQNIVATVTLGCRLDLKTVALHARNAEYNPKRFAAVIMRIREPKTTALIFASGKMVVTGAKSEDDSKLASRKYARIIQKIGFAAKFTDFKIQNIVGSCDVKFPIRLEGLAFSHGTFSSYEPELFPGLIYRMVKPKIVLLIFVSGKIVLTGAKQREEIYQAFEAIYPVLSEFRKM
Chain of UniProt Q00535 (whole entry, looked up): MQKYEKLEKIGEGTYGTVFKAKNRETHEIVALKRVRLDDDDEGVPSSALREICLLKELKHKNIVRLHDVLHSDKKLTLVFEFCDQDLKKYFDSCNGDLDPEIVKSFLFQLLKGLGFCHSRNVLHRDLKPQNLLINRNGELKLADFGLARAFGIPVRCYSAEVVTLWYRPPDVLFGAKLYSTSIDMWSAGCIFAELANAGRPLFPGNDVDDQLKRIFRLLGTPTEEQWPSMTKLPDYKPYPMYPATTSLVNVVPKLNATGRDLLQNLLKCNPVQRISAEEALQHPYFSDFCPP

Substance	tested on	assay	test system	setting	scale	quantity	value
epoetin alfa	UT7/EPO	microarray, item: RAB11FIP1 mRNA (probe set 225177_at)	–	5 U/mL, 90 min	baseline: vehicle	mRNA level	3.6 fold
semaglutide	–	–	DIO male Wistar rats	dose not given, 2 weeks	–	body weight	615 ± 23 g
colistin	Enterobacter cloacae	–	clinical isolate RKI 361/13	–	–	MIC	≤ 0.5 µg/mL
B1	CYB5R4 knockout human cells	PP4 interaction, 3xFLAG-PP4C IP-MS	–	concentration not given	baseline: CYB5R4 KO over parental	log2 fold change	0.74
Peginesatide	UT7/EPO	phosphorylation, agonist, item: phospho-AKT	–	10 min	–	EC50	0.00223 µM
B2 (human hnRNP M)	PP6C (human)	co-immunoprecipitation, IP-MS	CYB5R4 knockout cells	concentration not given	baseline: CYB5R4 knockout over parental	log2 fold change	-1.24
GSGAGPETLV	construct, MBP fusion, human SCRIB, PDZ 3-4	surface plasmon resonance	peptide	concentration not given	higher = stronger binding	normalised SPR binding response	15.7 normalised RU
UUUGUCUUU (ssRNA)	U2AF2	sequencing of bound RNA	RNA	motif only	–	Kd	8.12 µM
GSGAGKETYY	construct, MBP fusion, human SCRIB, PDZ 3-4	automated holdup	peptide, crude extract	concentration not given, uncorrected, unit not given	baseline: biotin control resin, higher = stronger binding	binding intensity	-0.029
DNA 1 GATCGATCGATCGATCGATCGATCGATCGATCGATTCAATTCAATCGGTCC / DNA 2 GGACCGATTGACTTGAATCGATCGATCGATCGATCGATCGATCGATCGATC (dsDNA; 5'-amino-C6 primer)	SPT15 full length assumed (Saccharomyces cerevisiae, UniProt P13393)	array	double-stranded DNA	TBP alone	–	Kd	0.0451 ± 0.00504 µM
KEAFWDRCLSVINGMSSKMLQINA	Cyclin-dependent kinase 5, with p25 (CDK5, Homo sapiens, UniProt Q00535)	phosphotransferase activity, radiometric	peptide	concentration not given, 10% DMSO, added: histone substrate	baseline: p5-WT peptide	activity change	45%
milbemycin oxime	Saccharomyces cerevisiae	cell growth	Pdr5 deleted, Cdr1 overexpressed	2^-9.966 µg/mL, added: fluconazole 1 µg/mL	–	OD600	1.03 and 1.01
human ILF2	CYB5R4 knockout human cells	PP4 interaction, 3xFLAG-PP4C IP-MS	–	concentration not given	baseline: CYB5R4 KO over parental	log2 fold change	-0.83
GSGAGSETKM	construct, MBP fusion, human SCRIB, PDZ 3-4	automated holdup	peptide, purified PDZ protein	concentration not given, unit not given	baseline: biotin control resin, higher = stronger binding	binding intensity	0.0555
human IGHG1	PP6C (human)	co-immunoprecipitation, IP-MS	CYB5R4 knockout cells	concentration not given	baseline: CYB5R4 knockout over parental	log2 fold change	-2.74
UAUUAUCCU (ssRNA)	U2AF2	sequencing of bound RNA	RNA	motif only	–	Kd	6.61 µM
